# Results pooled from the literature.
# ± gives the spread as reported.
# Organism: Escherichia coli
Compound,assay,test system,setting,scale,measurement,value
O=C(O)[C@@H]1Cc2c([nH]c3ccccc23)[C@@H](c2ccc(C(F)(F)F)cc2C(F)(F)F)N1,,BL21(DE3),"250 µM, 18 h",,growth inhibition,0%
CC[C@H](C)[C@H](NC(=O)[C@H](CCCCN)NC(=O)[C@H](CCCCN)NC(=O)[C@H](CC(C)C)NC(=O)[C@H](CCCCN)NC(=O)[C@H](CCC(=O)O)NC(=O)[C@H](CCCCN)NC(=O)[C@@H](NC(=O)[C@H](CCCCN)NC(=O)[C@H](CC(N)=O)NC(=O)[C@H](CCCNC(=N)N)NC(=O)[C@H](Cc1ccccc1)NC(=O)[C@H](CCCCN)NC(=O)[C@H](CCCNC(=N)N)NC(=O)[C@H](CC(C)C)NC(=O)[C@H](CCCNC(=N)N)NC(=O)[C@H](CCCCN)NC(=O)[C@H](CCCNC(=N)N)NC(=O)[C@H](CC(C)C)NC(=O)[C@@H](N)CC(C)C)[C@@H](C)CC)C(=O)NCC(=O)N[C@@H](CCC(N)=O)C(=O)N[C@@H](CCCCN)C(=O)N[C@H](C(=O)N[C@@H](CCC(N)=O)C(=O)NCC(=O)N[C@@H](Cc1ccccc1)C(=O)N[C@H](C(=O)N1CCC[C@H]1C(=O)N[C@@H](CCCCN)C(=O)N[C@@H](CC(C)C)C(=O)N[C@H](C(=O)N1CCC[C@H]1C(=O)N[C@@H](CCCNC(=N)N)C(=O)N[C@H](C(=O)N[C@@H](CCC(=O)O)C(=O)N[C@@H](CO)C(=O)O)[C@@H](C)O)C(C)C)C(C)C)[C@@H](C)CC,inhibition zone,Am. J16c,,,lethal concentration,1.84 µM
CCCCCCCC(=O)NCC(=O)N[C@@H](CC(C)C)C(=O)N[C@@H](CC(C)C)C(=O)N[C@@H](CCCCN)C(=O)N[C@@H](CCCNC(=N)N)C(=O)N[C@H](C(=O)N[C@@H](CCCCN)C(=O)N[C@H](C(=O)N[C@@H](CC(C)C)C(=O)N[C@@H](CC(C)C)C(N)=O)[C@@H](C)O)[C@@H](C)CC,checkerboard,ATCC 25922,with: gentamicin,,FIC index,0.5
C[C@]1(COC(=O)c2ccccc2O)[C@H](C(=O)O)N2C(=O)/C(=C/c3ccccn3)[C@H]2S1(=O)=O,broth microdilution,TG1 expressing CMY-2,16 µg/mL,,MIC of ceftazidime,0.12 µg/mL
CC(C)=CCC/C(C)=C/CNCCOC1C2CC3CC(C2)CC1C3 (stereo not shown),growth,,,,IC50,2.8 µg/mL
CC(C)C[C@H](NC(=O)[C@H](CCCCN)NC(=O)[C@H](C)NC(=O)[C@H](CC(C)C)NC(=O)[C@H](CCCCN)NC(=O)[C@H](CCC(N)=O)NC(=O)[C@H](CCCCN)NC(=O)[C@H](CC(C)C)NC(=O)[C@H](CCCCN)NC(=O)[C@H](CCC(N)=O)NC(=O)[C@H](CC(C)C)NC(=O)[C@H](CCCCN)NC(=O)[C@H](C)NC(=O)[C@H](CCCCN)NC(=O)[C@H](CC(C)C)NC(=O)[C@H](CCCCN)NC(=O)[C@H](C)NC(=O)[C@H](CC(C)C)NC(=O)[C@H](CCCCN)NC(=O)[C@H](CCC(N)=O)NC(=O)[C@@H](N)CCCCN)C(N)=O,LIVE/DEAD staining,10 mM phosphate buffer,"MIC, 30 min, pH 7.4, 37 °C",,dead cells,< 30%
CC[C@H](C)[C@H](NC(=O)[C@H](CCCCN)NC(=O)[C@H](CCCCN)NC(=O)[C@H](CC(C)C)NC(=O)[C@H](CCCCN)NC(=O)[C@H](CCC(=O)O)NC(=O)[C@H](CCCCN)NC(=O)[C@@H](NC(=O)[C@H](CCCCN)NC(=O)[C@H](CC(N)=O)NC(=O)[C@H](CCCNC(=N)N)NC(=O)[C@H](Cc1ccccc1)NC(=O)[C@H](CCCCN)NC(=O)[C@H](CCCNC(=N)N)NC(=O)[C@H](CC(C)C)NC(=O)[C@H](CCCNC(=N)N)NC(=O)[C@H](CCCCN)NC(=O)[C@H](CCCNC(=N)N)NC(=O)[C@@H](N)CC(C)C)[C@@H](C)CC)C(=O)NCC(=O)N[C@@H](CCC(N)=O)C(=O)N[C@@H](CCCCN)C(=O)N[C@H](C(=O)N[C@@H](CCC(N)=O)C(=O)NCC(=O)N[C@@H](Cc1ccccc1)C(=O)N[C@H](C(=O)N1CCC[C@H]1C(=O)N[C@@H](CCCCN)C(=O)N[C@@H](CC(C)C)C(=O)O)C(C)C)[C@@H](C)CC,inhibition zone,CIP. J14b,,,lethal concentration,1.77 µM
CN1CC(=O)N=C1N.C[C@H](CCC(=O)O)[C@H]1CC[C@H]2[C@@H]3[C@@H](O)C[C@@H]4C[C@H](O)CC[C@]4(C)[C@H]3CC[C@]12C,,TISTR 117,"1 mg per disc, 18 to 24 h, 37 °C, 6 mm disc",,inhibition zone diameter,7.1 ± 0.1 mm
CCCC(=O)NCC(=O)N[C@@H](CC(C)C)C(=O)N[C@@H](CC(C)C)C(=O)N[C@@H](CCCCN)C(=O)N[C@@H](CCCNC(=N)N)C(=O)N[C@H](C(=O)N[C@@H](CCCCN)C(=O)N[C@H](C(=O)N[C@@H](CC(C)C)C(=O)N[C@@H](CC(C)C)C(=O)NCCCC[C@H](NC(=O)[C@H](CC(C)C)NC(=O)[C@H](CC(C)C)NC(=O)[C@@H](NC(=O)[C@H](CCCCN)NC(=O)[C@@H](NC(=O)[C@H](CCCNC(=N)N)NC(=O)[C@H](CCCCN)NC(=O)[C@H](CC(C)C)NC(=O)[C@H](CC(C)C)NC(=O)CNC(=O)CCC)[C@@H](C)CC)[C@@H](C)O)C(N)=O)[C@@H](C)O)[C@@H](C)CC,checkerboard,ATCC 25922,with: rifampicin,,FIC index,0.312
CC(CCCOC(=O)CCC[N+](C)(C)C)C1CCC2C3CCC4CC(OC(=O)CCC[N+](C)(C)C)CCC4(C)C3CCC12C (stereo not shown),,ATCC 25922,,baseline: HC50 over MIC,selectivity index,205
CCCCCCCCCCCCCCC(=O)N[C@@H](CCCCN)C(=O)N[C@@H](CCCCN)C(=O)N[C@@H](CCCCN)C(=O)N[C@@H](CCCCN)C(=O)N[C@@H](Cc1c[nH]cn1)C(N)=O,,K12,,,MBC,32 µg/mL
CC[C@H](C)[C@@H]1NC(=O)[C@H](CCCCN)NC(=O)[C@@H](NC(=O)[C@H](C)NC(=O)[C@@H](NC(=O)[C@H](CC(C)C)NC(=O)[C@H](CC(N)=O)NC(=O)[C@@H](NC(=O)CNC(=O)[C@H](CC(C)C)NC(=O)[C@H](CCCNC(=N)N)NC(=O)[C@H](C)NC(=O)[C@H](CC(C)C)NC(=O)[C@H](CC(=O)O)NC(=O)[C@H](CCCCN)NC(=O)CNC(=O)[C@H](CC(C)C)NC(=O)CNC(=O)[C@H](CCCCN)NC(=O)[C@H](CO)NC(=O)[C@H](C)NC(=O)[C@H](Cc2ccccc2)NC(=O)[C@H](CCCCN)NC(=O)[C@H](C)NC(=O)[C@@H](NC(=O)CNC(=O)[C@H](CCCNC(=N)N)NC(=O)[C@H](Cc2ccccc2)NC(=O)[C@@H](NC(=O)[C@H](CO)NC(=O)[C@H](CO)NC(=O)[C@H](Cc2ccccc2)NC(=O)CN)[C@@H](C)CC)C(C)C)C(C)C)C(C)C)CSSC[C@@H](C(=O)O)NC(=O)[C@H](CCC(N)=O)NC(=O)[C@H](CCCCN)NC(=O)[C@H](CO)NC1=O,,ATCC 8739,2 × MIC,,time to complete killing,20 min
C[C@@](O)(C(F)F)[C@H](NC(=O)c1ccc(C#CC#CC2CC2)cc1)C(=O)NO,broth microdilution,W3110,with: mouse plasma 50%,baseline: CAMHB alone,MIC fold increase,9
CC[C@H](C)[C@H](NC(=O)[C@H](CCN)NC(=O)CCCCCCCCCCCNC(=O)CCCCCOC(=O)c1cn(C2CC2)c2cc(N3CCNCC3)c(F)cc2c1=O)C(=O)N[C@@H](CCN)C(=O)N[C@H](Cc1ccccc1)C(=O)N[C@@H](CC(C)C)C(=O)N[C@@H](CCN)C(=O)N[C@@H](C(=O)N[C@@H](CC(C)C)C(=O)N[C@@H](CO)C(N)=O)C(C)C,,,"6.25 µM, 4 h, 37 °C",,survival,32.2%
CCCCCCCCCC(=O)NCC(=O)N[C@@H](CC(C)C)C(=O)N[C@@H](CC(C)C)C(=O)N[C@@H](CCCCN)C(=O)N[C@@H](CCCNC(=N)N)C(=O)N[C@H](C(=O)N[C@@H](CCCCN)C(=O)N[C@H](C(=O)N[C@@H](CC(C)C)C(=O)N[C@@H](CC(C)C)C(N)=O)[C@@H](C)O)[C@@H](C)CC,checkerboard,ATCC 25922,with: gentamicin,,FIC index,0.5
CC[C@H](C)[C@H](NC(=O)[C@H](CCCCN)NC(=O)[C@H](CCCCN)NC(=O)[C@H](CC(C)C)NC(=O)[C@H](CCCCN)NC(=O)[C@H](CCC(=O)O)NC(=O)[C@H](CCCCN)NC(=O)[C@@H](NC(=O)[C@H](CCCCN)NC(=O)[C@H](CC(N)=O)NC(=O)[C@H](CCCNC(=N)N)NC(=O)[C@H](Cc1ccccc1)NC(=O)[C@H](CCCCN)NC(=O)[C@H](CCCNC(=N)N)NC(=O)[C@H](CC(C)C)NC(=O)[C@H](CCCNC(=N)N)NC(=O)[C@H](CCCCN)NC(=O)[C@H](CCCNC(=N)N)NC(=O)[C@H](CC(C)C)NC(=O)[C@@H](N)CCCNC(=N)N)[C@@H](C)CC)C(=O)NCC(=O)N[C@@H](CCC(N)=O)C(=O)N[C@@H](CCCCN)C(=O)N[C@H](C(=O)N[C@@H](CCC(N)=O)C(=O)NCC(=O)N[C@@H](Cc1ccccc1)C(=O)N[C@H](C(=O)N1CCC[C@H]1C(=O)N[C@@H](CCCCN)C(=O)N[C@@H](CC(C)C)C(=O)N[C@@H](CCC(N)=O)C(=O)N1CCC[C@H]1C(=O)N[C@@H](CO)C(=O)N[C@@H](CCCCN)C(=O)N[C@@H](CCC(N)=O)C(=O)N[C@@H](CO)C(=O)O)C(C)C)[C@@H](C)CC,inhibition zone,Am. J16c,,,lethal concentration,2.89 µM
